Measurements from different studies.
Each line is one published result; not all experiments were run side by side. Several values in a cell are separate wells, animals, samples, runs or records. ± marks the error that the study gave.
CASP6: Caspase-6 (CASP6, Homo sapiens, UniProt P55212)
TDP1: Tyrosyl-DNA phosphodiesterase 1 (TDP1, Homo sapiens, UniProt Q9NUW8)
Gria1: Glutamate receptor 1 (Gria1, Rattus norvegicus, UniProt P19490)
Uncharacterized protein: Uncharacterized protein (Trypanosoma brucei brucei, UniProt Q386Q8)
H3C15: Histone H3.2 (H3C15, Homo sapiens, UniProt Q71DI3)
T1: dsDNA, duplex; chain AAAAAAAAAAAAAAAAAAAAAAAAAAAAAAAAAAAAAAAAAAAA; chain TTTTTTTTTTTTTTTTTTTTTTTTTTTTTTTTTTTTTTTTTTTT

For `CC[C@H](NC(=O)[C@H](CC(C)C)NC(C)=O)C(=O)N[C@@H](CCC1CCCCC1)C(=O)N[C@@H](CC(=O)O)C(=O)COC(=O)c1c(C)cccc1C`, the kinact/KI was 123000 M⁻¹ s⁻¹ (CASP6; enzyme activity, inhibitor).
The Hill slope of `N[C@@H](Cc1c[nH]c2c(OCc3ccccc3)cccc12)C(=O)O` is reported as -1.51 (Large neutral amino acids transporter small subunit 1 (SLC7A5, Homo sapiens, UniProt Q01650); [3H]-L-leucine uptake; HT-29).
The inhibition of `CN(C)C=C(C=NOCc1ccc2nc(-c3ccccc3)c(Nc3ccc(C(=O)O)cc3)n2c1)c1ncc(C(F)(F)F)cc1Cl` is reported as 21% (TDP1; enzyme activity, inhibitor; 100 µM, unpurified compound).
`Cn1c(=O)n(C2CCC(=O)NC2=O)c2ccc(C3CCN(CC(=O)Nc4cccc(CS(=O)(=O)N5CC[C@H](Nc6cccc(-c7sc(C(=O)O)c(OCC(=O)O)c7Cl)c6)CC5(C)C)c4)CC3)cc21` (some centres unmarked) gave a remaining protein of 93% and 107% (Tyrosine-protein phosphatase non-receptor type 2 (Ptpn2, Mus musculus, UniProt Q06180); degrader, Western blot; B16-F10; 0.1 µM, together with: bortezomib 10 µM pretreatment).
`CC[C@H](C)[C@@H]1NC(=O)[C@H](Cc2c[nH]c3ccccc23)NC(=O)[C@H](Cc2ccccc2)N(C)C(=O)[C@H](C(C)C)NC(=O)[C@H](CC(C)C)NC(=O)[C@H](Cc2ccccc2)NC(=O)CSC[C@@H](C(=O)N[C@@H](CC(N)=O)C(N)=O)NC(=O)[C@H](Cc2ccccc2)NC1=O` gave a ΔTm of 1.11 °C (Bromodomain-containing protein 4, BD1 (BRD4, Homo sapiens, UniProt O60885); thermal stability, DSF; 100 µM).
`C[C@@H](Nc1nc(N[C@H](C)C(F)(F)F)nc(-c2cccc(Cl)n2)n1)C(F)(F)F` gave a maximal inhibition of 67.3 ± 1.9% (Isocitrate dehydrogenase [NADP] cytoplasmic, with wild-type IDH1 (IDH1, Homo sapiens, UniProt O75874, R132H); enzyme activity; 16 h preincubation, wild type, forward reaction).
`COC(=O)Cc1cc2c(cc1C(=O)c1ccccc1Cl)OCO2`: “deactivation time constant” 3.3 ± 0.02 ms (Gria1; glutamate-evoked current, whole-cell patch clamp; HEK-293T; concentration not given, weighted tau, 1 ms pulse, together with: glutamate).
`COc1ccc(C(=O)CC2(O)C(=O)Nc3ccc(C)cc32)cc1OC` (centres unmarked) gave a Hill slope of -30 (Uncharacterized protein; inhibitor, coupled colorimetric; Trypanosoma brucei).
`O=C1c2sc(-c3ccc(N4CCC(F)C4)nc3F)nc2CCN1c1cccnc1` (centres unmarked) gave an inhibition of 1% (Urotensin-2 receptor (UTS2R, Homo sapiens, UniProt Q9UKP6); ligand displacement, radioligand; 1 µM).
The inhibition of `O=C(O)c1ccc(Nc2c(-c3ccc(CON=Cc4cc(Cl)nc(-c5ccccc5)c4)cc3)nc3cc(-c4ccccc4)ccn23)cc1` (mixture of isomers) is reported as 50.6% (TDP1; enzyme activity, inhibitor; 100 µM, unpurified compound).
The TΔS of `CC(C)NCCCn1c(Sc2cc3c(cc2I)OCO3)nc2c(N)ncnc21` is reported as -2.02 ± 1.03 kcal/mol (HSP90AA1/HSP90B1 (Homo sapiens, UniProt P07900+P41148, E62I/S52A/Y61L); ITC).
`O=C1c2sc(-c3ccc(N4CCC(CO)CC4)nc3F)nc2CCN1c1cccnc1` gave a specific binding of 0.54 nM and 0.473 nM and 0.894 nM (TAR DNA-binding protein 43, aggregated (TARDBP, Homo sapiens, UniProt Q13148); radioligand binding; human, FTLD-TDP type C sarkosyl-insoluble extract; 102.04 nM).
`Cc1cnc2nc1Nc1cccc(c1)COC/C=C/COCc1cc(ccc1OCCN1CCOCC1)N2` gave a remaining signal of 73% (Mitogen-activated protein kinase kinase kinase 12 (MAP3K12, Homo sapiens, UniProt Q12852); cell-free assay; 0.1 µM).
`Cc1ccc2c(c1C)NC(=O)C2(O)CC(=O)c1ccc2c(c1)OCO2` (centres unmarked) gave a Hill slope of 0.76 (Uncharacterized protein; inhibitor, coupled colorimetric; Trypanosoma brucei).
`CC(=O)N[C@@H](CC(=O)O)C(=O)N[C@@H](CC(C)C)C(=O)N[C@H](C(=O)N[C@@H](C)C(=O)N[C@@H](CC(=O)O)C(=O)COC(=O)c1c(C)cccc1C)[C@@H](C)O` has a kinact/KI of 5100 M⁻¹ s⁻¹ (CASP6; enzyme activity, inhibitor).
For `CC1C(=O)N(S(=O)(=O)c2ccc(C#N)cc2)C1c1ccccc1` (racemic), IC50 read “inactive” (Rhomboid protease GlpG (glpG, Escherichia coli, UniProt P09391); substrate cleavage, inhibitor; NR698).
For `N[C@H]1CC[C@H](Nc2nccc(-c3cccnc3Oc3ccc(NC(=O)NC4CC4)c4ccccc34)n2)CC1`, “log2 LFQ intensity” read 23.5 and 23.1 and 23.2 (Protein RCC2 (RCC2, Homo sapiens, UniProt Q9P258); kinobead competition pulldown; HEK293/HCT116 lysate mixture; 10 µM, 1 h, 4 °C; lower = stronger competition).
For `O=C(O)Cc1cc2c(cc1C(=O)c1ccccc1I)OCO2`, “current amplitude ratio” read 2.36 ± 0.1 (Gria1; glutamate-evoked current, whole-cell patch clamp; HEK-293T; concentration not given; baseline: glutamate alone).
For `COc1ccc(NC(=O)Nc2ccc3c(c2)C(=O)N(C(C)CO)CC(C)C(CN(C)Cc2ccc4c(c2)OCO4)O3)cc1` (centres unmarked), the remaining binding was 81% (Proto-oncogene tyrosine-protein kinase Src (SRC, Homo sapiens, UniProt P12931); binding, competition with immobilised ligand; 10 µM).
With `Fc1cccc(Nc2nc(NC3CCCCC3)c3ccccc3n2)c1` the bias factor was greater than 100 fold (Beta-2 adrenergic receptor (ADRB2, Homo sapiens, UniProt P07550); β-arrestin2 recruitment, PathHunter and GloSensor; baseline: GloSensor IC50 over PathHunter IC50).
The inhibition of `Cc1cc(-n2c(C)cc(C=NOCc3ccc(-c4nc5cc(-c6ccccc6)ccn5c4Nc4ccc(C(=O)O)cc4)cc3)c2C)no1` is reported as 58.4% (TDP1; enzyme activity, inhibitor; 100 µM, unpurified compound).
With `CCCCOc1ccc(C(=O)OCCN2CC=CCC2)cc1` the basal binding was 1.12 ± 0.03 fold (Muscarinic acetylcholine receptor M3 (CHRM3, Homo sapiens, UniProt P20309); membranes; 1 µM, 15 h, no carbachol; baseline: control).
The kinact/KI of `CC(=O)NCCCC[C@H](NC(C)=O)C(=O)N[C@@H](CCCC(=O)O)C(=O)N[C@@H](C)C(=O)N[C@@H](CC(=O)O)C(=O)COC(=O)c1c(C)cccc1C` is reported as 3550 M⁻¹ s⁻¹ (CASP6; enzyme activity, inhibitor).
`COc1cc(Nc2nccc(-c3cnn4nc(OC)ccc34)n2)cc(C(F)(F)F)c1` gave a remaining binding of 88% (Tyrosine-protein kinase ABL1, phosphorylated (ABL1, Homo sapiens, UniProt P00519, E255K); binding; 1 µM).
`CCCCCC(O)/C=C/C=O` (centres unmarked): “isoTOP-ABPP competition ratio” 1.8 (H3C15; competitive isoTOP-ABPP, item: HIST2H3C cysteine peptide; Ramos soluble proteome; 100 µM, together with: iodoacetamide probe; baseline: DMSO over compound-treated, higher = stronger cysteine blockade).
`O=[N+]([O-])c1cc(Br)cc([N+](=O)[O-])c1NS(=O)(=O)c1ccc(Br)cc1` has a phosphatase activity of 0.911 a.u. and 1.07 a.u. and 1.08 a.u. (HAB1 (Arabidopsis thaliana, UniProt Q9CAJ0); inhibitor; 5 µM, no PYL receptor; higher = more activity).
With `CN(Cc1ccccc1)c1ncc(C=NOCc2ccc3nc(-c4ccccc4)c(Nc4ccc(C(=O)O)cc4)n3c2)s1` the inhibition was 11.4% (TDP1; enzyme activity, inhibitor; 100 µM, unpurified compound).
`CC(=O)N[C@H](CCc1ccccc1)C(=O)N[C@@H](CCC(=O)O)C(=O)N[C@@H](CCC(N)=O)C(=O)N[C@@H](CC(=O)O)C(=O)COC(=O)c1c(C)cccc1C` gave a kinact/KI of 1300 M⁻¹ s⁻¹ (CASP6; enzyme activity, inhibitor).
`CCCCCCCCn1c(CC)c(C)[n+](CCCCCCCC)c1CCC`: binding “binds” (T1, dsDNA, duplex; competition with EtBr, competitor, EtBr displacement fluorescence; Na+ 50 mM, together with: EtBr).
`O=C(O)Cc1cc2c(cc1C(=O)c1ccccc1Cl)OCO2` gave a current amplitude of 121 ± 11 pA (Gria1; glutamate-evoked current, whole-cell patch clamp; HEK-293T; concentration not given, pH 7.4, holding potential -60 mV, together with: 10 mM glutamate).
For `CN(C)c1nc(Cl)c(C=NOCc2ccc(-c3nc4cc(-c5ccccc5)ccn4c3Nc3ccc(C(=O)O)cc3)cc2)s1` (mixture of isomers), the inhibition was 65.6% (TDP1; enzyme activity, inhibitor; 100 µM, unpurified compound).
`CC(C)[C@@H]1NC(=O)[C@H](Cc2ccccc2)NC(=O)CSC[C@@H](C(N)=O)NC(=O)[C@H](CCC(=O)O)NC(=O)[C@H](CO)NC(=O)[C@H](Cc2c[nH]c3cccc(Cl)c23)NC(=O)[C@H](C2CCCCC2)NC(=O)[C@H](C(C)C)NC(=O)[C@H](Cc2ccc(O)cc2)NC(=O)[C@H](CC(=O)O)NC(=O)[C@H](Cc2c[nH]c3ccccc23)NC(=O)[C@H](Cc2ccc(N)nc2)NC(=O)[C@H](Cc2c[nH]c3ccc(Cl)cc23)NC(=O)[C@H](CCC(=O)O)NC1=O` has a remaining activity of 97.9% (Interleukin-1 receptor type 1 (IL1R1, Homo sapiens, UniProt P14778); IL-8 release, antagonist; A-431; 4 µM, 18 h, together with: IL-1β 5 ng/mL; baseline: untreated).
The inhibition of `COc1ccc2ccccc2c1C=NOCc1ccc(-c2nc3cc(-c4ccccc4)ccn3c2Nc2ccc(C(=O)O)cc2)cc1` (mixture of isomers) is reported as 0.1% (TDP1; enzyme activity, inhibitor; 100 µM, unpurified compound).
For `CCCCCCCO[C@H]1O[C@H](CO)[C@@H](O)[C@H](O)[C@@H]1O`, the binding stoichiometry was 1 ± 0.02 (Type 1 fimbrin D-mannose specific adhesin, lectin domain (fimH, Escherichia coli K-12, UniProt P08191); isothermal titration calorimetry; concentration not given, 25 °C).
`COc1ccc(C2(C(=O)N3CCC(Nc4nc5ccccc5c(=O)[nH]4)CC3)CC2)cc1` has a Hill slope of 1.79 (MRGPRD (Homo sapiens, UniProt Q8TDS7, N157A); miniGq recruitment, agonist, BRET; HEK293T; N157A mutant).
The iBAQ abundance of `N#CN1CC[C@H](C(=O)Nc2nc3c(s2)CN(C(=O)Cn2cc(COCCOCCOCCOCCNC(=O)CCCC[C@@H]4SC[C@@H]5NC(=O)N[C@@H]54)nn2)CC3)C1` is reported as 2.77e+08 (Tubulin beta-4B chain (Homo sapiens, UniProt P68371); probe binding, affinity probe, neutravidin pull-down LC-MS/MS; HEK293T, cell lysate; 5 µM, 1 h, mean of three replicates, unit not given; higher = more pulled down).
`CC(C)Oc1cc(Cl)ccc1CNc1cc(-c2ccccc2)nc2ncnn12` gave a cAMP luminescence of 45300 a.u. and 41400 a.u. and 32800 a.u. and 33200 a.u. (G-protein coupled receptor 3 (GPR3, Homo sapiens, UniProt P46089, Q211A); cAMP level, cAMP GloSensor; 100 pM; higher = more cAMP).
The ligand efficiency of `CNc1cc(N)c(C(N)=O)c[n+]1C` is reported as 0.63 (Nicotinamide N-methyltransferase (NNMT, Homo sapiens, UniProt P40261); cellular inhibition; from cell pIC50).
Under “isoTOP-ABPP competition ratio”, `CCCCCCCCCCCCC/C=C/C=O` is recorded as 1.3 (Mini-chromosome maintenance complex-binding protein (Homo sapiens, UniProt Q9BTE3); competitive isoTOP-ABPP, item: C10orf119 cysteine peptide; Ramos soluble proteome; 100 µM, together with: iodoacetamide probe; baseline: DMSO over compound-treated, higher = stronger cysteine blockade).
With `CC(=O)N[C@@H](Cc1ccc(I)cc1)C(=O)N[C@@H](CCC(=O)O)C(=O)N[C@H](C(=O)N[C@@H](CC(=O)O)C(=O)COC(=O)c1c(C)cccc1C)[C@@H](C)O` the kinact/KI was 44100 M⁻¹ s⁻¹ (CASP6; enzyme activity, inhibitor).
`O=C(O)c1ccc(Nc2c(-c3ccc(CON=Cc4ccc(OCc5ccccc5)cc4)cc3)nc3cc(-c4ccccc4)ccn23)cc1` (mixture of isomers) has an inhibition of 60.7% (TDP1; enzyme activity, inhibitor; 100 µM, unpurified compound).
The remaining binding of `Cn1cc(-c2cc(N3CCCCS3(=O)=O)ccc2N[C@H]2CC[C@H](C)CC2)c2cc[nH]c2c1=O` (stereo in doubt) is reported as 100% (Protein polybromo-1, bromodomain 5 (PBRM1, Homo sapiens, UniProt Q86U86); bromodomain binding screen; 1 µM; lower is stronger binding).
`CCCCCC=CC=C1C(=O)C=CC1CC=CCCCC(=O)O` (centres unmarked): “isoTOP-ABPP competition ratio” 1.8 (H3C15; competitive isoTOP-ABPP, item: HIST2H3C cysteine peptide; proteome, soluble, MDA-MB-231; 100 µM, together with: iodoacetamide probe; baseline: DMSO over compound-treated, higher = stronger cysteine blockade).
With `O=C(O)c1ccc(Nc2c(-c3ccccc3)nc3ccc(CON=Cc4cc(-c5ccc(F)cc5)on4)cn23)cc1` the inhibition was -5.3% (TDP1; enzyme activity, inhibitor; 100 µM, unpurified compound).
